# Measured values collected from several papers.
# Each line is one published result; not all experiments were run side by side. Values joined by “and” are separate records of one study, mostly repeats; a detail may differ. ± gives the spread as reported.
Compound,assay,test system,setting,how to read,quantity,value
C=CC[N+]1([C@H]2C[C@H]3[C@@H]4CC[C@H]5C[C@H](O)[C@@H](N6CCOCC6)C[C@]5(C)[C@H]4CC[C@]3(C)[C@H]2OC(C)=O)CCCC1,,"Sprague Dawley rat, plasma","intravenous, 0.2 mg/kg, with: vehicle IV",,Cmax,287 ng/mL
COc1ncnn2ccc(-c3cnc4nc(C)n(Cc5nnc([C@@H](C)F)o5)c4c3)c12,,human,"oral, dose not given, grade 3",,patients with vomiting,0%
COc1cccc(Oc2ccccc2NC(=O)CNC(=O)c2cccc3ccccc23)c1,,"esterase-deficient SCID mice, male","oral, 100 mg/kg/day, 14 days, toxicity study",,sodium/potassium ratio,19 and 17
Oc1ccc(CSCc2ccc(O)cc2)cc1,,ICR mice male,"oral, 3000 mg/kg, day 8, acute toxicity",,body weight,35.5 ± 1.01 g
CC(C)C[C@H](NC(=O)[C@H](C)NC(=O)[C@@H](NC(=O)[C@H](CCCNC(=N)N)NC(=O)[C@H](CC(C)C)NC(=O)[C@H](Cc1c[nH]c2ccccc12)NC(=O)[C@@H]1CCCN1C(=O)[C@@H](N)CCCCN)C(C)C)C(=O)N[C@@H](CS)C(=O)N1CCC[C@H]1C(=O)NCC(=O)O,,sheep red blood cells,"4 µM, 1 h, 37 °C",,hemolysis,0.096% and 1.01% and 0.78%
C=CC(=O)N1CC[C@H](n2nc(C#Cc3cc(OC)cc(OC)c3)c3c(N)ncnc32)C1,,patients with advanced solid tumours,"oral, dose not given, Malaise, any grade, QD, with: lanthanum carbonate hydrate",,adverse drug reaction incidence,16.7%
Cn1nc(NS(C)(=O)=O)c2c(Cl)ccc(-n3c([C@H](Cc4cc(F)cc(F)c4)NC(=O)Cn4nc(C(F)F)c5c4C(F)(F)[C@@H]4C[C@H]54)nc4nc(OCCC(F)(F)F)ccc4c3=O)c21,measured: total bile acids increased,human,"1875 mg, powder in bottle",,drug-related adverse events,17%
C[C@@H]1OC(=O)NN=C1c1ccc(-c2ccc(F)cc2)c(C(F)(F)F)c1,"phase I trial, measured: Anaemia all grades",human patients,20 mg loading then 1 mg daily,,patients with adverse event,100%
C[C@]1(CO)Cc2ncn(-c3ccc(C#N)c(Cl)c3)c2C(=O)O1,,human,40 mg single dose,,subjects with drug-related orthostatic hypotension,0%
COc1cc2c(Oc3ccc4[nH]c(C)cc4c3F)ccnc2cc1OCC1(N)CC1,,paediatric recurrent refractory sarcoma,8 mg,,grade 1 or 2 Fever,0%
CC(C)C[C@H](NC(=O)[C@H](CCCCN)NC(=O)OCC1c2ccccc2-c2ccccc21)C(=O)N[C@H](C(=O)N[C@@H](Cc1ccccc1)C(=O)N[C@@H](Cc1ccccc1)C(=O)N[C@@H](CCCCN)C(=O)NCC(=O)N[C@@H](Cc1ccccc1)C(=O)N[C@@H](C)C(=O)N[C@@H](Cc1c[nH]c2ccccc12)C(=O)N[C@@H](CC(N)=O)C(=O)N[C@H](C(=O)N[C@H]1CSSC[C@@H](C(=O)N[C@@H](Cc2c[nH]cn2)C(=O)N[C@@H](CCCNC(=N)N)C(=O)N[C@@H](CCCNC(=N)N)C(=O)N[C@@H](C)C(=O)N[C@@H](CC(N)=O)C(N)=O)NC(=O)[C@H](C(C)C)NC(=O)[C@H](CCCNC(=N)N)NC(=O)[C@H](C(C)C)NC(=O)CNC(=O)[C@H](CC(N)=O)NC(=O)[C@H](CCCNC(=N)N)NC(=O)[C@H](Cc2ccc(O)cc2)NC(=O)[C@H](C(C)C)NC1=O)C(C)C)C(C)C,,"ICR mice, serum","intraperitoneal, 5 mg/kg, day 5",,AST,25.1 ± 0.55 IU/L
O=C1Nc2cc3[nH]nc(-c4ccncc4)c3cc2CN1Cc1ccccc1,CTCAE v4.03,advanced solid tumour patients,"intravenous, 3.6 mg/kg, schedules 1/2",,patients with increased GGT,0%
O=S(=O)(Nc1ccccc1)c1ccc(NC(=S)Nc2ccccc2)cc1,,"male mouse, blood","oral, 20 mg/kg daily, 14 days",,albumin level,3 g/dL
O=C(Nc1ccc(Cl)cc1)Nc1ccc(Cl)c(Cl)c1,ultrafiltration,cow milk whey,2000 nM nominal in whole milk,,dose fraction in permeate,2.62%
CC(C)Nc1ccnc(Nc2cccc(-c3cccnc3)c2)n1,measured: total bilirubin,"mouse, blood","intraperitoneal, 5 mg/kg",,blood chemistry,0.3 mg/dL
CC(C)c1nc(N(C)S(C)(=O)=O)nc(-c2ccc(F)cc2)c1/C=C/[C@@H](O)C[C@@H](O)CC(=O)O,,healthy human subjects,"oral, dose not given, study CL-0537 safety set",,incidence of Diarrhea,0%
CCc1ccc(CC/C=C/c2ccc3c(c2)C(=O)CC3)cc1,,"Sprague-Dawley rat, female, serum","oral, 450 mg/kg/day, 14 days",,creatinine,22.7 µM
O=C(Nc1ccccc1)C1CCN(C(=O)Oc2cccnc2)CC1,adverse event reporting,healthy women,"oral, 100 mg, 9 days",,subjects with dry mouth,7.7%
CCCCCCCCCCC[C@H](OC1OC[C@H](O)[C@@H](O)[C@@H]1O)[C@H](O)[C@H](O)C[C@@H]1CC(=O)N[C@H](CO)C(=O)N[C@H]([C@H](O)c2ccc(O)cc2)C(=O)N[C@H](CCN)C(=O)NCC(=O)N[C@@H](CC(N)=O)C(=O)N[C@@H](CO)C(=O)N[C@@H]([C@H](O)C(N)=O)C(=O)N1 (some centres unmarked),LC-MS/MS,"rabbit plasma, sodium citrate","200 ng/mL, room temperature",,"measured concentration, benchtop",151 ng/mL
CO[C@H]1C[C@@H]2CC[C@@H](C)[C@@](O)(O2)C(=O)C(=O)N2CCCC[C@H]2C(=O)O[C@H]([C@H](C)C[C@@H]2CC[C@@H](OC(=O)NCCOCCOCCOCCOCCOCCOCCOCCOCCC(=O)N3CCc4cc(Cn5nc(-c6ccc7oc(N)nc7c6)c6c(N)ncnc65)ccc4C3)[C@H](OC)C2)C[C@@H](O)[C@H](C)/C=C(\C)[C@@H](O)[C@@H](OC)C(=O)[C@H](C)C[C@H](C)/C=C/C=C/C=C/1C,"phase 1 dose escalation, measured: pneumonia",advanced solid tumour patients,"intravenous, 10 mg weekly, grade ≥3",,dose-reducing adverse events,0%
[2H]C([2H])([18F])[C@]([2H])(N)C(=O)O,PET,"athymic nude mice, U-87 MG","dose not given, 20 min post-injection",reference: tumour over muscle,tumour-to-muscle ratio,1.13 ± 0.17
Cn1cncc1-c1c(F)cncc1NC(=O)c1c(N)nn2cc(F)cnc12,,human patients,"oral, 180 mg once daily",,grade ≥3 hyponatraemia incidence,0%
C1=Cc2nc1cc1ccc([n-]1)c(C1CC1)c1nc(cc3ccc([n-]3)c2C2CC2)C=C1.CC(=O)[O-].[Mn+3],LC-MS/MS,"Sprague-Dawley rat, plasma","oral gavage, dose not given, 60 min",,plasma concentration,424 ng/mL and 317 ng/mL
CC[C@H](C)[C@H](NC(=O)[C@H](Cc1ccccc1)NC(=O)[C@H](CCC(=O)O)NC(=O)[C@H](CCCNC(=N)N)NC(=O)[C@H](C)NC(=O)[C@H](C)NC(=O)[C@H](CCC(N)=O)NC(=O)[C@H](CCC(=O)O)NC(=O)[C@H](CCC(=O)O)NC(=O)[C@H](CC(C)C)NC(=O)[C@H](Cc1ccc(O)cc1)NC(=O)[C@H](CO)NC(=O)[C@H](CO)NC(=O)[C@@H](NC(=O)[C@H](CC(=O)O)NC(=O)[C@H](CO)NC(=O)[C@@H](NC(=O)[C@H](Cc1ccccc1)NC(=O)[C@@H](NC(=O)CNC(=O)[C@H](CCC(=O)O)NC(=O)[C@H](C)NC(=O)CCc1cnc[nH]1)[C@@H](C)O)[C@@H](C)O)C(C)C)C(=O)N[C@@H](C)C(=O)N[C@@H](Cc1c[nH]c2ccccc12)C(=O)N[C@@H](CC(C)C)C(=O)N[C@H](C(=O)N[C@@H](CCCNC(=N)N)C(=O)NCC(=O)N[C@@H](CCCNC(=N)N)C(=O)N[C@@H](CCCCNC(=O)COCCOCCNC(=O)COCCOCCNC(=O)CC[C@H](NC(=O)CCCCCCCCCCCCCCCCC(=O)O)C(=O)O)C(=O)NCC(=O)NCC(=O)N[C@@H](CO)C(=O)N[C@@H](CCSC)C(=O)N[C@H](C(=O)N[C@@H](CCCCNc1c(NCCCCCN(O)C(=O)CCC(=O)NCCCCCN(O)C(=O)CCC(=O)NCCCCCN(O)C(C)=O)c(=O)c1=O)C(=O)O)C(C)C)C(C)C [zirconium-89 labelled],ex vivo gamma counting,"male Sprague-Dawley rats, spleen","intravenous, 1 nmol, 72 h, mean of 3 animals",,tissue uptake,0.276 %ID/g
O=C(O)CCCOc1ccc(F)cc1-c1cc(-c2ccccc2C(F)(F)F)n(-c2ccccc2)n1,,"male Crl:CD(SD) rats, heart","intravenous, 25 µg/kg, 14 d",,relative organ weight,0.33 ± 0.03 g%
COc1ccc2nc3cc(Cl)ccc3c(Nc3cc(CN4CCCC4)c(O)c(CN4CCCC4)c3)c2n1,,"mouse, blood","intraperitoneal, 28 mg/kg",,platelet distribution width,15.6%

# Repeated from above:
Compound,assay,test system,setting,how to read,quantity,value
O=C(Nc1ccc(Cl)cc1)Nc1ccc(Cl)c(Cl)c1,ultrafiltration,cow milk whey,2000 nM nominal in whole milk,,dose fraction in permeate,2.62%
CC(C)C[C@H](NC(=O)[C@H](CCCCN)NC(=O)OCC1c2ccccc2-c2ccccc21)C(=O)N[C@H](C(=O)N[C@@H](Cc1ccccc1)C(=O)N[C@@H](Cc1ccccc1)C(=O)N[C@@H](CCCCN)C(=O)NCC(=O)N[C@@H](Cc1ccccc1)C(=O)N[C@@H](C)C(=O)N[C@@H](Cc1c[nH]c2ccccc12)C(=O)N[C@@H](CC(N)=O)C(=O)N[C@H](C(=O)N[C@H]1CSSC[C@@H](C(=O)N[C@@H](Cc2c[nH]cn2)C(=O)N[C@@H](CCCNC(=N)N)C(=O)N[C@@H](CCCNC(=N)N)C(=O)N[C@@H](C)C(=O)N[C@@H](CC(N)=O)C(N)=O)NC(=O)[C@H](C(C)C)NC(=O)[C@H](CCCNC(=N)N)NC(=O)[C@H](C(C)C)NC(=O)CNC(=O)[C@H](CC(N)=O)NC(=O)[C@H](CCCNC(=N)N)NC(=O)[C@H](Cc2ccc(O)cc2)NC(=O)[C@H](C(C)C)NC1=O)C(C)C)C(C)C,,"ICR mice, serum","intraperitoneal, 5 mg/kg, day 5",,AST,25.1 ± 0.55 IU/L
